Experimental data gathered from unrelated publications.
Compare with care: the assays were run in different laboratories. Several values in a cell are separate wells, animals, samples, runs or records.

SMILES | target or system | test | system | conditions | scale | quantity | result
O=C(NCc1ccccc1Cl)C1CCCN(Cc2cccc(-c3ccc(F)cc3F)c2)C1 (centres unmarked) | SARS-CoV-2 | cytopathic effect | USA_WA1/2020 | round 1, 5-point | – | maximum response | 47.4%
O=c1[nH]c2ccccc2n1CCCN1CCN(C(c2ccccc2)c2ccccc2)CC1 | SARS-CoV-2 | viral replication, GFP plate reader screen | – | cell-based | – | EC50 | > 100 µM
CC(C)(C)[C@H](NC(=O)C(F)(F)F)C(=O)N1C[C@H]2[C@@H]([C@H]1C(=O)N[C@H](C#N)C[C@@H]1CCNC1=O)C2(C)C | SARS-CoV-2 | viral replication | Vero E6 | 3 µM | – | inhibition | 93.2% and 119% and 105%
Nc1ncnc2c([C@@H]3N[C@H](CO)[C@@H](O)[C@H]3O)c[nH]c12 | Zaire ebolavirus | antibody staining | HeLa, Kikwit | 3.1 µM | – | antigen-positive cells | 49.9%
O=C(Nc1cccc(Cl)c1)C1CCCN(Cc2cccc(-c3ccc(F)cc3F)c2)C1 (centres unmarked) | SARS-CoV-2 | cytopathic effect | USA_WA1/2020 | retest, 8-point, duplicates | – | efficacy | 0%
COC(=O)[C@H]1[C@H]2C[C@@H]3c4[nH]c5cc(OC)ccc5c4CCN3C[C@H]2C[C@@H](OC(=O)c2cc(OC)c(OC)c(OC)c2)[C@@H]1OC | SARS-CoV-2 | viral replication, GFP plate reader screen | – | cell-based | – | EC50 | > 25.1 µM
O=C(O[C@@H]1Cc2c(O)cc(O)cc2O[C@@H]1c1cc(O)c(O)c(O)c1)c1cc(O)c(O)c(O)c1 | SARS-CoV-2 | viral cytopathic effect | Vero E6 | 3.125 µM | – | mean inhibition | 0%
CCN(CC)CCCNC(=O)c1ccc(-c2nc(CN3CCc4ccccc43)c(C)o2)cc1 | SARS-CoV-2 | cytopathic effect | USA_WA1/2020 | retest, 8-point, duplicates | – | maximum response | 97.2%
CCC(=O)c1ccc2c(c1)N(CCCN1CCN(CCO)CC1)c1ccccc1S2 | SARS-CoV-2 | viral replication, high-content imaging screen | – | cell-based | – | EC50 | > 100 µM
Clc1ccc2nc(N3CCC(NCCc4cccnc4)CC3)sc2c1 | SARS-CoV-2 | cytopathic effect, cell-based CPE | USA_WA1/2020 | round 2, 5-point dilution | – | AC50 | 14.1 µM
CC(C)=CCc1c(O)ccc(C(=O)/C=C/c2ccc(O)cc2)c1O | SARS-CoV-2 | viral replication | Vero E6 | 12.5 µM | – | CPE inhibition | 0%
Clc1ccc(C(c2ccccc2)N2CCN(C/C=C/c3ccccc3)CC2)cc1 (centres unmarked) | SARS-CoV-2 | viral replication, high-content imaging screen | – | cell-based | – | EC50 | 20.9 µM
Cc1ccc(-c2cccc(CN3CCCC(c4nc5ccc(C)cc5c(=O)[nH]4)C3)c2)c(C)c1 (centres unmarked) | SARS-CoV-2 | cytopathic effect | USA_WA1/2020 | retest, 8-point, duplicates | – | efficacy | 98%
COc1ccc(C[C@@H]2c3cc(Oc4cc(C[C@@H]5c6cc(O)c(OC)cc6CCN5C)ccc4O)c(OC)cc3CCN2C)cc1 | SARS-CoV-2 | cytopathic effect | Vero E6 | 25 µM, first run | – | inhibition | 0%
OC1(c2ccc(Cl)c(C(F)(F)F)c2)CCN(CCCC(c2ccc(F)cc2)c2ccc(F)cc2)CC1 | SARS-CoV-2 | viral replication, high-content imaging screen | – | cell-based | – | EC50 | > 100 µM
O=C(/C=C/c1ccc(O)c(O)c1/C=C/c1ccc(O)c(O)c1)O[C@H](Cc1ccc(O)c(O)c1)C(=O)O | SARS-CoV-2 | cytopathic effect | Vero E6 | 100 µM, replicate run | – | mean inhibition | 75%
CC[C@H](C)[C@H](NC(=O)[C@H](CC(C)C)NC(=O)[C@H](Cc1c[nH]c2ccccc12)NC(=O)[C@H](CCC(N)=O)NC(=O)[C@@H](NC(=O)[C@H](Cc1ccccc1)NC(=O)[C@H](C)NC(=O)[C@H](CCCCNC(=O)COCCOCCNC(=O)COCCOCCNC(=O)CC[C@H](NC(=O)CCCCCCCCCCCCCCCCCCC(=O)O)C(=O)O)NC(=O)[C@H](CCC(N)=O)NC(=O)[C@H](C)NC(=O)[C@@H](NC(=O)[C@H](CCCCN)NC(=O)[C@H](CC(=O)O)NC(=O)[C@H](CC(C)C)NC(=O)C(C)(C)NC(=O)[C@@H](NC(=O)[C@H](CO)NC(=O)[C@H](Cc1ccc(O)cc1)NC(=O)[C@H](CC(=O)O)NC(=O)[C@H](CO)NC(=O)[C@@H](NC(=O)[C@H](Cc1ccccc1)NC(=O)[C@@H](NC(=O)CNC(=O)[C@H](CCC(=O)O)NC(=O)C(C)(C)NC(=O)[C@@H](N)Cc1ccc(O)cc1)[C@@H](C)O)[C@@H](C)O)[C@@H](C)CC)[C@@H](C)CC)C(C)C)C(=O)N[C@@H](C)C(=O)NCC(=O)NCC(=O)N1CCC[C@H]1C(=O)N[C@@H](CO)C(=O)N[C@@H](CO)C(=O)NCC(=O)N[C@@H](C)C(=O)N1CCC[C@H]1C(=O)N1CCC[C@H]1C(=O)N1CCC[C@H]1C(=O)N[C@@H](CO)C(N)=O | – | – | healthy subjects, single ascending dose | 2.5 mg, day 29 | relative to: baseline | pulse rate change | 4.65 bpm

Some of these lines once more:
SMILES | target or system | test | system | conditions | scale | quantity | result
O=C(NCc1ccccc1Cl)C1CCCN(Cc2cccc(-c3ccc(F)cc3F)c2)C1 (centres unmarked) | SARS-CoV-2 | cytopathic effect | USA_WA1/2020 | round 1, 5-point | – | maximum response | 47.4%
O=c1[nH]c2ccccc2n1CCCN1CCN(C(c2ccccc2)c2ccccc2)CC1 | SARS-CoV-2 | viral replication, GFP plate reader screen | – | cell-based | – | EC50 | > 100 µM
